Published values collected from several papers.
Lines come from different studies, so protocols differ.
Cell line: human cells

COc1cc(/C=C/c2ccc3c(c2)[C@@H](c2cc(OC)cc(OC)c2)[C@H](c2ccc(O)cc2)O3)cc(OC)c1 — CC50 (48 (unit not given)): 79.3 µM
Nc1nc(Nc2ccc(Cl)c(Cl)c2)nn1S(=O)(=O)c1ccc2ccccc2c1 — CC50: 17 µM
Cc1ccc(NS(=O)(=O)c2c(C(=O)N3CCCCCC3)c(C)n(C)c2C)c(Cl)c1 — viability (33.33 µM, 60 h): 98.2%
Nc1nc(Nc2ccc(Cl)cc2)nn1S(=O)(=O)c1ccc2ccccc2c1 — CC50: 8.7 µM
Oc1ccc([C@@H]2Oc3ccc(/C=C/c4cc(O)cc(O)c4)cc3[C@H]2c2cc(O)cc(O)c2)cc1 — CC50 (1 (unit not given)): 502 µM
COc1ccc(-c2cnc3c(C#Cc4cccnc4)snc3c2)cc1OC — CC50 (48 (unit not given)): > 10 µM
O=C(Oc1cncc(Cl)c1)c1cccc2[nH]ccc12 — CC50 (cytotoxicity; 48 (unit not given)): 81 µM
COc1ccc(NN2CCCC3(C2)Nc2cccnc2N=C3NC2CCCC2)c(C)c1 (stereo not shown) — CC50 (72 (unit not given)): > 100 µM
COc1cc(OC)cc([C@@H]2c3cc(/C=C/c4cc(O)cc(O)c4)ccc3O[C@H]2c2ccc(O)cc2)c1 — CC50 (48 (unit not given)): 15.8 µM
CC(C)C[C@H](NC(=O)OCc1ccccc1)C(=O)N[C@H](C=O)C[C@@H]1CCNC1=O — CC50 (cytotoxicity; 48 (unit not given)): > 50 µM

Some of these lines once more:
Nc1nc(Nc2ccc(Cl)cc2)nn1S(=O)(=O)c1ccc2ccccc2c1 — CC50: 8.7 µM
Oc1ccc([C@@H]2Oc3ccc(/C=C/c4cc(O)cc(O)c4)cc3[C@H]2c2cc(O)cc(O)c2)cc1 — CC50 (1 (unit not given)): 502 µM
